Assay results collected from several papers.
Numbered parts are unrelated; each lists some results of a single study.

Study 1
Target: RING finger protein unkempt homolog, zinc fingers 1-6, GST-SBP tag (UNK, Homo sapiens, UniProt Q9C0B0, residues 30-357)
Technique: RNA Bind-n-Seq
Molecule type: RNA
Matrix: in vitro
Tested at: not given
Notes: RNA with constant flanks, ends assumed
Baseline: input RNA pool
Reading: higher = stronger binding
Constant ends, left off below: GGGAGUUCUACAGUCCGACGAUC … CAACAGAGGAUUGAGCAUCA
Residues (chain): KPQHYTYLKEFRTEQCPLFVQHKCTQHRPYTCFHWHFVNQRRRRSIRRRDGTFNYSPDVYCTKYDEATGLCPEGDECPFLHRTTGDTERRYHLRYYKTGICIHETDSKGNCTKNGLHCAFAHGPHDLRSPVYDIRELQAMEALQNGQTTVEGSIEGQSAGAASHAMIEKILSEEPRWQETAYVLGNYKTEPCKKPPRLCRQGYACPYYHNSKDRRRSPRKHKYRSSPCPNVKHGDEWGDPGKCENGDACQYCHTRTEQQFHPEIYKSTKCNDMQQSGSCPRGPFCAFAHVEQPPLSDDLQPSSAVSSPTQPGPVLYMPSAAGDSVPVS
Sequence	bound/input enrichment [ratio]
AAGUGGUUACGGGAAAUUCUGAUCUGCAGAAAUAAAUUUCUUCUUAAAAAUAAGCAGGCAGACCGAAGCUCCUGUCAUUCUCUCUACCUUUAUGGAGUAGGAUGUGAAAUGUCUGCUACU	0.194
AGAGGUGCAAAGAAGACUGCAGAGAUGAAUGAAAAGCUCUCCAAGAUGGGCGAAAGUUCACUCCGAAACUUUACAAUGGAUACAGAGUCAAGUGUUUAUAACUUCGAAGGAGAAGACUAU	0.254
AUCUCUUUUGGUUUUGAUAAUCUGAAGUGUUUUUUUCUCGUUUUGGCCUUCCAAACUGCAUUUGGUCCGGUGAAUUAAGAAAAAUAUUGCCAUCAAGAAUUACUUGUGUUUUCACAGAGA	0.182
CCACCACCAGUGGUUCUCCAGAGCCUAAAUGGAAUACUUAAAACACACUGCUGAGUUGUACCGUUUCUUUUUCUUUUAUAUAUAUAUAUAUGUGUAUAUGUAACAAAGCAUUAUUCAGGU	0.281
GGGGACCCGGAGCUGCAGCCCAUCCGGAGCUAUGAGAUCGCCAGCUUGGUCCGCACACUCUUCCGGCUGUCGUCUGCCAUCAACCACAGAUUUGCAGGACAGAUGGCGGCUCUGUGUUCC	0.122
GAUAUGAAACAUUGGCCCUUUAUGGUGGUGAAUGAUGCUGGCAGGCCCAAGGUCCAAGCCGAAUACAAGGGAGAGACCAAAAGCUUCUAUCCAGAGGAGGUGUCUUCUAUGGUUCUGACA	0.232
GGGUACGAUGUUUUGGCUAAUCCCCCAGGACCAGAAGACCCAGAUGAGGAAGAGGAUACCUACCGCGAUUUGUUUGAGUUUGAGUUUGCUGAAAGCUCCCUCUUGCCGUGUUAUAACAUC	0.174
GUUCUCUCUGUCACUGACUUAUUUGUAAGAGAAAAUUAGUUGGACUUGUUUAUUUUCCCGCCGCUUUUAUAAGUACACUCAAGAAUUUGUCAGGGAGAAUAAUUCUGAUAGUGCAUCCCA	0.0703
GAGAUGCUAGCACACAGGGCAGUCCUGGCUUGCUGUAGCCCCUAUCUAUUUGAAAUCUUCAACCGUGACAGUGACCCUCAUGGAGUUUCUCAUGUGAAGUUGGAUGAUCUCAAUCCAGAA	0.481
GCCAUGUUAGUAGAAAACACUAAGGAAGAAGUAAUUGUGAGGAGUAAAGACAAAGAGGAUUCCGUUUGUAGUGCAGCCCUUCAUAAUCCACAAGAGUCACCUGCGACCCUUACUAAAGUG	0.318
CUUCAUUUUACACUAAAGCAUAAUGUCAUGAAGUUUCAUAUCUGUACAGAUUAUUUAAAUCACCGAAAUGAAAAAUGUUCUCUGCUUGCUACCAAAGGACAAACUCUUGGAAACGGACAU	0.135

Study 2
Target: RNA binding protein fox-1 homolog 2, RRM domain, GST-SBP tag (RBFOX2, Homo sapiens, UniProt O43251-10, residues 100-194)
Technique: RNA Bind-n-Seq
Molecule type: RNA
Matrix: in vitro
Tested at: 365 nM
Notes: natural RNA segment, single round, ends assumed
Baseline: no-protein control
Reading: higher = stronger binding
Constant ends, left off below: GGGAGUUCUACAGUCCGACGAUC … UGGAAUUCUCGGGUGCCAA
Construct (chain): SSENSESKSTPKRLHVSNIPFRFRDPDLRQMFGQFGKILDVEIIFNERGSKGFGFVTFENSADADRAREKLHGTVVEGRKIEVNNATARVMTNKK
Sequence	RBNS enrichment (R)
UGUCUCCCUGGGCAAGGGAAGGGGACCAGGAGAAAGGUGAUGAGGCCCCAGGGACUCCUGUCAUCUGGUACUCUCCCUCUUACAGAGGAGAGAGCUAGUGGCUUAAAAGG	0.654
CUAUGUUCUUGACUUUGUCUCUCCUUUCCGAGUCAAUGGUGGGUUACACUGAUCUUGUUCCACUGAUUACUCUCUCUGACGAGUCCAUCACCUGCAACUUAAAUGAACAA	0.478
UUAUGUAGACAUUGUAAAUAAAUUUUGUGCAAAAAGGACUGGAAAGAUGAACUGUAUUAUUGCAUUUAUUUUGUUUUUUUUUUUGUGAAAGUAGCAGAUUAGUGCAAGGU	0.758
CACCCUGGUAGAUUAGCCAGCUGUCAGACUCACUUUUAUUUCAAUCCUUACACUUCAUAAACUUUUGUCUCCACGUUGUUACCAUAUUUGGAGACAGAAACAGGAGUUUC	0.219
UAUAUAGUGCCACUGUGCCUUCUCAUUUGUUUCUGAAUUUUCCACAUUUUAUUACAAAAUGUAGAAAUGCUAGCCCAUCUCCCCCUGCCCUAUACAUUUGCUCUUCCUAU	0.686
UCACAUCAACAUUUGUAAAAUUGAUGUGUUAUAGUGGAAAAUAACAUAUAGAUUAAACAAAAUUUUUAUCUUUUUUCAAGAAUAUAGCUGGCUAUCUUUAAGAAAGAUGA	1.13
CCUUGCUGCACCAGUGGCCAUUAGCUCCCGUCACCACUGCAACCCAGGGUCCCAGCUGGCUGGGUCCUCUUCUGCCCCCAGUGCCCUUCCCCUUGGGCUGUGUUGGAGUG	1.04
UUGAUACUUAAGUUGUCGAACAGUAGACAUUACUUGUUUUAUUUAUGAUAUAUUUCAGCUUAAAGUUAUGUUAUUAUAUGUGGAAGUGUAAAUAUAGAUUUGGUGUUUUG	0.905
CUUUGCAGGAGAACUUGGAAGCAGAGUUCACCAGUGAGCUCAGGUGUCUCAAAGAAGGGUGGAAGUUCUCAUGUCUGUUAGCUAUUCAUAAGAAUGCUGUUUGCUGCAGU	15.1
CUGGGCUGACCCCGGUGGCGGCCCCAGCACCUCAGCCUGCACAGUGUCCCCCAGGUUCCGAAGAAGAUGCUCCAGCAACACAGCCUGGGCCCCAGCUCGCGGGACCCGAC	0.444
UGGAACUUGGUCUCCCAACACUUAUUGUGAUUGCAAAGUGUUUACCAGAUAUUUGAUGAGGUGCUAUGUUUGUGAAAAACAUAUCAUGUAAUUCAAAAACACUAUUGAUA	0.66
CUUUGUAAUCUCUGCCUGUGAUUUUCUUUUCUAAAUGACGACUCCGUGUAACCACCUGGACUAAGUUGAGAAGGAAACUGCCAAAUGCUUUGGGUUUUUAGGGUUUUAAU	0.466

Study 3
Target: Interferon regulatory factor 5, full length, phosphomimetic (IRF5, Homo sapiens, UniProt Q13568-2, residues 1-514, K96S/S451D/S453D/S456D/S462D)
Technique: protein-binding microarray
Molecule type: double-stranded DNA, one strand shown
Matrix: in vitro
Tested at: 250 nM
Notes: 60-bp whole probe
With: salmon DNA 0.4 mg/ml
Baseline: random background probes
Reading: higher = stronger binding
Constant ends, left off below: GCCTAGCAC … GTCTTGATTCGCTTGACGCTGCTG
Sequence	log fluorescence [z-score]
TTCGGTCTCCTACTGCTTTAGTGCTAG	0.822
TTAGCTCTCAGACTGGATTAGTGCTAG	-0.107
GACGGTATCGGACTGGGAACGTGCTAG	1.12
GACGGACTGCTTCGCCTGACGTGCTAG	-0.658
TTTTTTTCATATATATATGAGTGCTAG	2.33
GACGGTATCGATTTTCGGGACGTGCTA	5.38
CTCTTGTTCTCTCTGGCCCTGTGCTAG	-0.0131
TTATATATCGGGTATCGATTAGTGCTA	5.86
GACGGACTGGCTCTCGGGACGTGCTAG	-0.634
TTGGGTTTCCTTCTCCTTTAGTGCTAG	0.697
ACCTGTATATCTTCAGCGGGGTGCTAG	-0.0339
TGCTGTCTCAGAGTCCTCTGGTGCTAG	-0.097
GATGGTCTCGGTTTCGGGACGTGCTAG	3.82
GACGATATCGGGTTTAGAGACGTGCTA	1.58
TCACATCTCCAGTAGCCTACTGTGCTA	0.245
GACGACCTGAGTATCGAGACGTGCTAG	1.36
TAAGGTTTCGACTATCGGTTAGTGCTA	9.26
TCATGTCTCTGGCCTGGGACTGTGCTA	-0.178
TCATATTAGAGTCTCAAACTGTGCTAG	0.234
TTAGGTTTCGGTTTTGGTTAGTGCTAG	10.7

Study 4
Target: Hepatocyte nuclear factor 3-beta, forkhead domain (FOXA2, Homo sapiens, UniProt Q9Y261, residues 142-269)
Technique: protein-binding microarray
Molecule type: double-stranded DNA, one strand shown
Matrix: in vitro
Tested at: not given
Notes: k-mer, scored over probes, only values ≥0.25
Reading: higher = stronger binding
Construct (chain): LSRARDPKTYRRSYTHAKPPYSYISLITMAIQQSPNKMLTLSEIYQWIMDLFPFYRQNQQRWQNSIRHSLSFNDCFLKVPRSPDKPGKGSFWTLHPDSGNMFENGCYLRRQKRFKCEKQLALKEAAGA
Sequence	E-score
TATGAATA	0.326
CAAACATA	0.313
ATTGAAAT	0.288
CATACATA	0.347
AAACGTAA	0.268
TCTATTAA	0.291
TCATGCAA	0.255
AGATAACG	0.263
ACATTTTA	0.273
GCAAATAC	0.253
ATATACAG	0.404
ATATGTGG	0.363
GAAATGAA	0.284
AGTGTTAA	0.275
ATATATAA	0.439
CATTAATA	0.282
ATCACAAC	0.307
GCCATATA	0.321
GCACAACA	0.267
CAGATATA	0.265
AATACCAC	0.311
ATTTGTAA	0.342
ATATTAGG	0.379
ATACAATC	0.287
AGTTGTTG	0.278

A few entries again (study 3):
Sequence	log fluorescence [z-score]
TTGGGTTTCCTTCTCCTTTAGTGCTAG	0.697
GATGGTCTCGGTTTCGGGACGTGCTAG	3.82
GACGGACTGGCTCTCGGGACGTGCTAG	-0.634
ACCTGTATATCTTCAGCGGGGTGCTAG	-0.0339
